Experimental data pooled from the literature.
Compare with care: the assays were run in different laboratories. “And” joins repeats or separate records; there may be more than shown.
Target: Cannabinoid receptor 2 (CNR2, Homo sapiens, UniProt P34972)
Sequence of UniProt P34972 (whole entry, looked up): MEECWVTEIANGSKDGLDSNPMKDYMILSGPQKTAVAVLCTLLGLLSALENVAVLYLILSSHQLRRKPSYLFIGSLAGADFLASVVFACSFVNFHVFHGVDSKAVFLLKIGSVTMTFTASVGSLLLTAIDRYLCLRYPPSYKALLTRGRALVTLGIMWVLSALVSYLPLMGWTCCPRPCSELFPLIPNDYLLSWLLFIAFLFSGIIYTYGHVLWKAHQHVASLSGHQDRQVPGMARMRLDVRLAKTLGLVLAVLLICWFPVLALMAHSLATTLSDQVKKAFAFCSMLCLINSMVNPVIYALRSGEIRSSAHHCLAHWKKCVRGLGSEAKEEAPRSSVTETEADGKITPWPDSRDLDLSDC

| Compound | assay | setting | how to read | quantity | result |
| --- | --- | --- | --- | --- | --- |
| CS(C)(=O)=Nc1ccc(-c2ccc(-c3nc4cc(O[C@@H]5CO[C@H]6[C@@H]5OC[C@H]6O)[nH]c4cc3F)cc2)cc1 | calcium signal, antagonist | 10 µM |  | inhibition | 4% |
| Cc1cc(-c2ccc3ccccc3c2)nnc1NCCN1CCN(C)CC1 | antagonist | 10000 nM | relative to: control | activity | 0% |
| O=C(O)c1ccc(-c2nc(-c3ccccc3Cl)c3sccn23)cc1 | radioligand binding, safety screen panel | 10 µM | relative to: control | specific binding | 109% and 106% |
| CCOC(=O)[C@@](CC)(CCCSCCOCCOCCNc1ccc([N+](=O)[O-])c2nonc12)NC(=O)c1ccc(C2CC2)c(Cc2ccc(F)cc2)n1 | cAMP level | together with: forskolin | relative to: CB1 over CB2 (human) | EC50 ratio | > 588 |
| COC(=O)[C@@H](NC(=O)c1nn(Cc2ccc(F)cc2)c2cc(OCCCCNC(=N)N)ccc12)C(C)(C)C | GTPase |  | relative to: FUB | Gi GTP turnover maximum | 61% |
| COc1ccc(F)cc1S(=O)(=O)Nc1cnc2c(c1)C(=O)NCCO2 | ligand displacement, radioligand | 10 µM |  | inhibition | 7% |
| CCc1nnc(-c2c(OC)cc(-c3cnc4cc(-c5cnn(C)c5)ccn34)cc2OC)o1 | agonist, radioligand binding | 10 µM | relative to: control | specific binding | 102% |
| CCOC(=O)[C@](CC)(CCCSCCOCCOCCNC(=O)c1ccc(-c2c3ccc(=N)c(S(=O)(=O)O)c-3oc3c(S(=O)(=O)O)c(N)ccc23)c(C(=O)O)c1)NC(=O)c1ccc(C2CC2)c(Cc2ccc(F)cc2)n1 | radioligand binding |  | relative to: CB1 over CB2 (human) | Ki ratio | 7 |
| C/C(=N\OCCCN1CCCCC1)c1ccc(C(F)(F)F)cc1 | agonist, cAMP | 10 µM |  | activation | -36.4% |
| CCOC(=O)C(CC)(CC)NC(=O)c1ccc(C2CC2)c(Cc2ccc(F)cc2)n1 | cAMP level | together with: forskolin | relative to: CB1 over CB2 (human) | EC50 ratio | 6.3 |
| C[C@]12CC[C@H]3[C@@H](CC[C@H]4C[C@H](O)CC[C@@]43C)[C@@H]1CC(=O)C2 | cAMP level, agonist | concentration not given |  | activity | inactive |
| Cc1cc(Nc2nc(C[C@@]3(C(=O)O)CCN(Cc4cccc(Cl)c4F)[C@H](C)C3)cc(C)c2F)[nH]n1 | agonist | 10 µM |  | activation | -1.25% |

Some of these lines once more:
| Compound | assay | setting | how to read | quantity | result |
| --- | --- | --- | --- | --- | --- |
| C/C(=N\OCCCN1CCCCC1)c1ccc(C(F)(F)F)cc1 | agonist, cAMP | 10 µM |  | activation | -36.4% |
| CCOC(=O)C(CC)(CC)NC(=O)c1ccc(C2CC2)c(Cc2ccc(F)cc2)n1 | cAMP level | together with: forskolin | relative to: CB1 over CB2 (human) | EC50 ratio | 6.3 |
